Measurements from different studies.
Lines come from different studies, so protocols differ.

CNc1nc(SC)nc2ccccc12  MIC (Mycobacterium tuberculosis variant bovis BCG; microbial growth; BCG): 0.3 µM
CC[C@H](C)[C@@H]1NC(=O)[C@H](CC(C)C)NC(=O)[C@@H](NC(=O)[C@H](CO)NC(=O)[C@H](CCCNC(=N)N)NC(=O)[C@@H](N)CO)CSSC[C@H](NC(=O)[C@H](CO)NC(=O)[C@H](CCCNC(=N)N)NC(=O)[C@@H](N)CO)C(=O)N[C@@H](CC(C)C)C(=O)N[C@@H]([C@@H](C)CC)C(=O)N[C@@H](C(C)C)C(=O)N[C@H](C(=O)N[C@@H](CCC(N)=O)C(=O)N[C@@H](CCCNC(=N)N)C(=O)N[C@@H](CC(C)C)C(=O)N[C@@H](Cc2ccccc2)C(N)=O)CSSC[C@@H](C(=O)N[C@@H](CCC(N)=O)C(=O)N[C@@H](CCCNC(=N)N)C(=O)N[C@@H](CC(C)C)C(=O)N[C@@H](Cc2ccccc2)C(N)=O)NC(=O)[C@H](C(C)C)NC1=O  MIC (Candida parapsilosis; broth microdilution; ATCC 22019): 39 µg/mL
N=C(N)NCCC[C@@H]1NC(=O)[C@H](CCCNC(=N)N)NC(=O)[C@H](CCCNC(=N)N)NC(=O)[C@H](CCCNC(=N)N)NC(=O)[C@H](Cc2c[nH]c3ccccc23)NC(=O)[C@H](CCCNC(=N)N)NC(=O)[C@H](CCCNC(=N)N)NC(=O)[C@@H](N)CCCn2cc(nn2)C[C@@H](C(N)=O)NC1=O  MIC (Salmonella enterica serovar Paratyphi B; 24 h, 37 °C): 15.6 µg/mL
Cc1ccc(-c2nc3ccc(C)cn3c2CC(=O)NCc2ccc(N(C)C)cc2)cc1  MIC (Mycobacterium tuberculosis variant bovis BCG; microbial growth; BCG; 6 days): 24 µM
CC[C@H](C)[C@H](NC(=O)[C@H](C)NC(=O)[C@@H]1CCCN1C(=O)[C@H](CC(C)C)NC(=O)[C@H](Cc1ccccc1)NC(=O)[C@H](CCCCN)NC(=O)[C@H](CCSC)NC(=O)[C@H](C)NC(=O)[C@H](CCSC)NC(=O)[C@H](CCCCN)NC(=O)[C@H](C)NC(=O)[C@@H](NC(=O)[C@@H](NC(=O)CNC(=O)[C@H](Cc1ccccc1)NC(=O)[C@@H](N)Cc1ccccc1)C(C)C)[C@@H](C)CC)C(=O)N[C@@H](Cc1ccccc1)C(=O)N[C@@H](CCCCN)C(=O)N[C@@H](CCC(N)=O)C(=O)N[C@H](C(=O)N[C@@H](CCC(N)=O)C(=O)N[C@@H](CCCCN)C(=O)N[C@@H](CCCCN)C(=O)N[C@@H](CCCNC(=N)N)C(=O)N[C@@H](CCCCN)C(N)=O)[C@@H](C)CC  MIC (Mycolicibacterium smegmatis; ATP luminescence; ATCC 607; 48 h): 12.5 to 25 µM
CC(C)=CCc1cc([C@@H]2CC(=O)c3ccc(O)c(CC=C(C)C)c3O2)c(O)c(CC=C(C)C)c1O  MIC (Salmonella enterica serovar Typhi; DMST 22842; up to 128 µg/mL): inactive
CC[C@H](C)[C@H](NC(=O)[C@H](CCC(N)=O)NC(=O)[C@@H]1CCCN1C(=O)[C@@H](NC(=O)[C@@H](NC(=O)[C@H](Cc1ccccc1)NC(=O)[C@H](C)NC(=O)[C@H](C)NC(=O)[C@H](CC(C)C)NC(=O)[C@H](CCCNC(=N)N)NC(=O)[C@H](C)NC(=O)[C@H](CC(C)C)NC(=O)[C@H](CC(C)C)NC(=O)CNC(=O)[C@@H](NC(=O)[C@@H](N)Cc1ccccc1)C(C)C)C(C)C)[C@@H](C)CC)C(=O)N[C@H](C(=O)N[C@@H](CCCCN)C(=O)N[C@@H](CCCNC(=N)N)C(=O)N[C@@H](Cc1ccccc1)C(=O)N[C@@H](CCC(N)=O)C(=O)N[C@@H](CCCCN)C(=O)N[C@@H](CCCCN)C(=O)N[C@@H](CC(N)=O)C(N)=O)C(C)C  MIC (Mycolicibacterium smegmatis; ATP luminescence; ATCC 607; 48 h): 50 µM
Cc1ccc(CNC(=O)C(=O)c2c(C)nc3ccc(C)cn23)cc1  MIC (Mycobacterium tuberculosis variant bovis BCG; microbial growth; BCG; 6 days): 15 µM
O=C(NC12CC3CC(CC(C3)C1)C2)c1cc2cc(Cl)ccc2[nH]1  MIC (Moraxella catarrhalis; microbial growth, broth dilution; 1502): > 64 µM
N=C(N)NCCC[C@@H]1NC(=O)[C@H](CCCNC(=N)N)NC(=O)[C@H](CCCNC(=N)N)NC(=O)[C@H](CCCNC(=N)N)NC(=O)[C@H](Cc2c[nH]c3ccccc23)NC(=O)[C@H](CCCNC(=N)N)NC(=O)[C@H](CCCNC(=N)N)NC(=O)[C@@H](N)CCn2cc(nn2)C[C@@H](C(N)=O)NC1=O  MIC (Salmonella enterica serovar Paratyphi B; 24 h, 37 °C): 15.6 µg/mL
CC(C)=CCc1cc(-c2coc3cc(O)c(CC=C(C)C)c(O)c3c2=O)ccc1O  MIC (Salmonella enterica serovar Typhi; DMST 22842; up to 128 µg/mL): inactive
c1cc2c(s1)CCOC21CCN(Cc2ccc3c(c2)OCCO3)CC1  MIC (Mycobacterium tuberculosis variant bovis BCG; microbial growth; BCG): 1.6 µM
Cc1ccc2nc(C)c(CC(=O)NCc3ccc(N(C)C)cc3)n2c1  MIC (Mycobacterium tuberculosis variant bovis BCG; microbial growth; BCG; 6 days): 10 µM

A few entries again:
N=C(N)NCCC[C@@H]1NC(=O)[C@H](CCCNC(=N)N)NC(=O)[C@H](CCCNC(=N)N)NC(=O)[C@H](CCCNC(=N)N)NC(=O)[C@H](Cc2c[nH]c3ccccc23)NC(=O)[C@H](CCCNC(=N)N)NC(=O)[C@H](CCCNC(=N)N)NC(=O)[C@@H](N)CCn2cc(nn2)C[C@@H](C(N)=O)NC1=O  MIC (Salmonella enterica serovar Paratyphi B; 24 h, 37 °C): 15.6 µg/mL
CC(C)=CCc1cc(-c2coc3cc(O)c(CC=C(C)C)c(O)c3c2=O)ccc1O  MIC (Salmonella enterica serovar Typhi; DMST 22842; up to 128 µg/mL): inactive
